# Published values from different studies.
# Every numbered part comes from another study and shows a few of its results, in no order. Positions count from the first letter of the parent shown.

# Series 1 — technique: RNA Bind-n-Seq; molecule type: RNA; matrix: in vitro; tested at: not given; baseline: input RNA pool; reading: higher = stronger binding
# Target: RING finger protein unkempt homolog, zinc fingers 1-6, GST-SBP tag (UNK, Homo sapiens, UniProt Q9C0B0, residues 30-357)
# UniProt Q9C0B0, sequence (30-357, looked up): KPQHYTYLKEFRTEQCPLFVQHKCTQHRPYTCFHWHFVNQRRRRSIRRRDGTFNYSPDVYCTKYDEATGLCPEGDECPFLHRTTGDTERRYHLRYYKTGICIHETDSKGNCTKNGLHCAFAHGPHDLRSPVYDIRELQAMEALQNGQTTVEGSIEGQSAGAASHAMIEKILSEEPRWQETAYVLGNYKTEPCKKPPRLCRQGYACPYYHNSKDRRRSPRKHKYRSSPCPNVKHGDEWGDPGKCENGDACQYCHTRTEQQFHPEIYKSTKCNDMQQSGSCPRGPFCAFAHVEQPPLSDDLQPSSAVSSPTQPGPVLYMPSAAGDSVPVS
# Setting: RNA with constant flanks, human-mouse chimeric sites, ends assumed
Strand,bound/input enrichment [ratio]
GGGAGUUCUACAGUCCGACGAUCACUCAGAGAUCCACCUCCCAAAGUGCUGGGAGUAAAGGUGUGGCCACCACACCUAACUUGAUGGAUAUAUAUUUUUUCUCUUUUAUGUCUUCCUGUUCUUCAUCCAGAGAAAGAUUUGUUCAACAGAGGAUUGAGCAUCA,0.297
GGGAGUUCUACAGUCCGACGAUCUGUGAACUGUCUCUUGAGAUCUAAAAACAAGAUGACUUUUCCUGGCACAUAUUUCAAAGCAAAGACUUUGUUGCCUGCUGCUUAUUGUCUAAUUUACAGGGAUAUUUAAUUUUGUCAGGUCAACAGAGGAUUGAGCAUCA,0.16
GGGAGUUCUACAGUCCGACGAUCAUUCCGAUUAUGGACACCGGUGAAAACCCAGAGGUUCCCUUCCCCCGGGACAUGAUCGACUUAGAGGCCAAUUUCGAGAAGAUUGAAAAUGAACUGAAGGAAAUCAACACAAACCAGGAACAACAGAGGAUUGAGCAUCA,0.133
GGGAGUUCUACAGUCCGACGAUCCUGUGACCACAAGAUCCUGAAGUUUGAGCAGCUGAAGUUGACUCCCUCUCCUUGCCUGAACCCCCCCCUUUUGUUCCCCCAUCCCCCAGUGUCGGCUGAGAUGUUGCCUCUGCACGGUUCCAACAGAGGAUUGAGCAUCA,1.98
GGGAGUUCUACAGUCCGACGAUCAUCAAAUACUUUGGGGAUAUUAUUAGCGUGGGACAGAGACUGUUGCAAGGGGCCCGGAUCUUAGGGAUUCCAGUUAUCAUAACGGAACAAUACCCCAAAGGACUUGGCAGCACCGUUCAACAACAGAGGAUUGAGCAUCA,0.302
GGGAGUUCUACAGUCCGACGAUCGACUUUGGGACUGGUCCUCGUAAUGCAGCCUUCUAUAGCCCUCAUGGACAUAUAUUAGUGCUGGCUGGAUUUGGAAAUCUUCGAGGACAAAUGGAAGUGUGGGAUGUUAAAAACUACAAGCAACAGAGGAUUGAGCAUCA,0.402

# Series 2 — target: CCND2, cyclin fold, Cln2 fusion (human); technique: yeast growth competition, sequencing; matrix: yeast; setting: weak parent motif; baseline: not given; reading: higher = stronger binding
# Parent: SAMHD1 docking peptide (human); ASKSRVQLFKDDP
Change,normalised enrichment score
R5G,0.104
K3E,0.355
K3Q,-0.0831
K10E,0.207
Q7W,0.157
Q7H,0.357
K3V,0.13

# Series 3 — technique: universal PBM; molecule type: double-stranded DNA, one strand shown; matrix: in vitro; tested at: not given; reading: higher = stronger binding
# Target: Sal-like protein 4, full length isoform B (SALL4, Homo sapiens, UniProt Q9UJQ4-2, residues 1-616)
# Setting: 8-mer, flanks averaged, mean of replicates
Strand,E-score
TCAACGAA,-0.0418
CTCGACGA,-0.191
CTTCACAC,0.097
AGACCGAT,-0.0779
CCACCGAC,-0.331
TACCAGGA,-0.0123
AGCATTGC,-0.0309
ACGCCCTC,-0.0963
ATGCGTTA,0.133

# Mixed results
Molecule,target,test,test system,conditions,how to read,quantity,result
"PhoQ, residues 284 288 289 292 302 303 ALASRC","PhoP, residues 12 14 15 18 19 SYFRT (Escherichia coli, UniProt P23836)","Sort-seq, item: YFP reporter",E. coli,"PhoQ-PhoP variant library, with: 10 µM Mg2+","baseline: high Mg2+ state, higher = stronger signaling",fold induction,4.69
